{"data": "Measurements collected from several papers", "target": "Tyrosine-protein kinase JAK1 (JAK1, Homo sapiens, UniProt P23458)", "mode": "inhibitor", "chain of UniProt P23458 (whole entry, looked up)": "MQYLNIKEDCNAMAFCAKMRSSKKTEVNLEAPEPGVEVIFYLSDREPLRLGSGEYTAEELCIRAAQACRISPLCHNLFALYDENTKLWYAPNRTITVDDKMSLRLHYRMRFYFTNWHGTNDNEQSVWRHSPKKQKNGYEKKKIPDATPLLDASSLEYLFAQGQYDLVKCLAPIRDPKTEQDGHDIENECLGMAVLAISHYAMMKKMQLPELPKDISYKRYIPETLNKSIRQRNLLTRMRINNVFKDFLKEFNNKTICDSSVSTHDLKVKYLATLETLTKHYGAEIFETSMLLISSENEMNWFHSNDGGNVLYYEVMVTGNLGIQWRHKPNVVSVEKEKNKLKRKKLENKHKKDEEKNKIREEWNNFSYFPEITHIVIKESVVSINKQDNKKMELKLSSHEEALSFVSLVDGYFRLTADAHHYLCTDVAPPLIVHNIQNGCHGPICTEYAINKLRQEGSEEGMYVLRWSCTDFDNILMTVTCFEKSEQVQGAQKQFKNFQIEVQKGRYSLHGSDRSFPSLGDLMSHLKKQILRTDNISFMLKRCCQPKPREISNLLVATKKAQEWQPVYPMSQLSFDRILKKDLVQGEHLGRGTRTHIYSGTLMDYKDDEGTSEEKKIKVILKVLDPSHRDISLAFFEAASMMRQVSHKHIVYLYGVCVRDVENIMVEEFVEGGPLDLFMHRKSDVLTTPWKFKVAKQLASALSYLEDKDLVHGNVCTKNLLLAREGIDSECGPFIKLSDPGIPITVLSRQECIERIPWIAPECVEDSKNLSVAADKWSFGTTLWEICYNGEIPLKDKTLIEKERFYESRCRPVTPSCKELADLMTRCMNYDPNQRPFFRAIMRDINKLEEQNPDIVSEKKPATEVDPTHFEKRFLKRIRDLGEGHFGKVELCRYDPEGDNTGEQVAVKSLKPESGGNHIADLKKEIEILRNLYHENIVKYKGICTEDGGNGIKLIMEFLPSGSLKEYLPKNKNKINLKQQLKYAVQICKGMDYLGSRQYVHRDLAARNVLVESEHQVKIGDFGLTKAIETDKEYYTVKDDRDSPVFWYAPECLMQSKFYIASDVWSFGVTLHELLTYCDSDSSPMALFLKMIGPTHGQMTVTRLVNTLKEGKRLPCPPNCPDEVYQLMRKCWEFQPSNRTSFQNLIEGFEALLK"}
{"SMILES": "COc1ccc(-c2cccc3nc(NC(=O)C4CC4)nn23)cc1", "assay": "enzyme activity", "IC50 [nM]": 72}
{"SMILES": "CN(C(=O)c1ccn2ncc(-c3ccc(C(N)=O)cc3)c2c1)c1ccc(C#N)cn1", "assay": "enzyme activity", "IC50 [nM]": "> 10000"}
{"SMILES": "Cc1cnc(Nc2cc(C)c(C)c(C)c2)nc1Nc1ccc2oc(=O)[nH]c2c1", "assay": "enzyme activity", "IC50 [nM]": 2.4}
{"SMILES": "N#C/C(=C\\c1cccc(-c2cnc3[nH]cnc3c2)c1)C(N)=O", "assay": "kinase activity", "setting": "up to highest tested, with: ATP at Km", "IC50 [nM]": "> 10000"}
{"SMILES": "Cc1ccc2oc(-c3c4c(N)n[nH]c(=O)c4nn3-c3ccc(NC(=O)/C=C/CN(C)C)cc3)c(C)c2c1", "assay": "enzyme activity, FRET", "IC50 [nM]": "> 1000"}
{"SMILES": "COc1ccc2c(c1)C(=C1Nc3ccccc3C1=NOCC(O)CO)C(=O)N2 (centres unmarked)", "assay": "enzyme activity, radiometric", "IC50 [nM]": 10.4}
{"SMILES": "C=CC(=O)N1CCc2ccc(-n3c(=O)ccc4cnc5ccc(-c6cnn(C)c6)cc5c43)cc21", "assay": "enzyme activity", "IC50 [nM]": "> 10000"}
{"SMILES": "Cc1[nH]nc2c1N=C(c1ccccc1Cl)c1cnc(N3CCOCC3)cc1N2", "assay": "enzyme activity", "IC50 [nM]": 15}
